Results gathered from unrelated publications.
Parts stem from different laboratories: compare values within a part only.

Sample 1 — cell line: HEK-293T; observed: pseudovirus infection; method: FDA-approved drug library screen; organism: VSV pseudotyped with SARS-CoV-2 spike; tested at: 10 µM; time: 16 h; baseline: vehicle-treated
With C[C@@H]1CN(c2c(F)c(N)c3c(=O)c(C(=O)O)cn(C4CC4)c3c2F)C[C@H](C)N1 the GFP-positive cells was 86.9%.
With O=C(OOC(=O)c1ccccc1)c1ccccc1 the GFP-positive cells was 86.9%.
CC(=O)[C@H]1CC[C@H]2[C@@H]3CCC4=CC(=O)CC[C@]4(C)[C@H]3CC[C@]12C gave a GFP-positive cells of 101%.
Cc1c(OCC(F)(F)F)ccnc1C[S+]([O-])c1nc2ccccc2[nH]1 (centres unmarked) has a GFP-positive cells of 105%.

Sample 2 — mode: inhibitor; tested at: 20 µM
Target: Replicase polyprotein 1ab, nsp13 helicase (rep, Severe acute respiratory syndrome coronavirus 2, UniProt P0DTD1)
The inhibition of CCOC(=O)[C@H](CCc1ccccc1)N[C@@H](C)C(=O)N1Cc2ccccc2C[C@H]1C(=O)O is reported as 2.08%.
With O=C1[C@H]2CCCC[C@H]2C(=O)N1CCCCN1CCN(c2nsc3ccccc23)CC1 the inhibition was 6.06%.
Cc1ccc(-c2ncc[nH]2)cc1NC(=O)c1ccc(OCc2ccccn2)cc1 has an inhibition of 4.53%.
With CCOCc1nc2c(N)nc3ccccc3c2n1CC(C)(C)O the inhibition was 5.74%.
CC[C@@H](C)Nc1cc(C(=O)N[C@H]2C[C@H]3CC[C@@H](C2)N3c2ccc(C(=O)C3CC3)cn2)c(C)cc1C(N)=O has an inhibition of 5.69%.
For CCCCCC(O)CCCC(=O)O (centres unmarked), the inhibition was -2.54%.
CN1CCN2c3ncccc3Cc3ccccc3C2C1 (centres unmarked) gave an inhibition of 0.67%.
Cn1cc(-c2cnc3ccc4ccc(CS(=O)(=O)NCc5ccccn5)cc4c(=O)c3c2)cn1 gave an inhibition of 2.5%.
For c1ccc(CC2=NCCN2)cc1, the inhibition was 3.67%.
With C[C@]12COC(=O)C[C@@H]1CC[C@@H]1[C@@H]2CC[C@@]2(C)[C@H]1CC[C@]2(C)O the inhibition was 8.05%.
COC(=O)[C@@H]1CC2=CC(=O)CC[C@]2(C)[C@@]23O[C@@H]2C[C@@]2(C)[C@@H](CC[C@@]24CCC(=O)O4)[C@H]13 gave an inhibition of 0.33%.
The inhibition of COC(=O)C1=C(C)NC(C)=C([N+](=O)[O-])[C@H]1c1ccccc1C(F)(F)F is reported as 0.86%.
With C[C@]12CC[C@@H]3c4ccc(O)cc4CC[C@H]3[C@@H]1[C@@H](O)[C@@H](O)[C@@H]2O the inhibition was 5.85%.
The inhibition of CC(C)Oc1ccc(Cc2ccc(NC3=NCCN3)cc2)cc1 is reported as -0.54%.
The inhibition of Cc1ccc(/C=C2\CNC/C(=C\c3ccc(C)cc3)C2=O)cc1 is reported as 3.98%.
The inhibition of Clc1cccc(Cl)c1NC1=NCCN1 is reported as -0.26%.
With OC[C@H]1NCC[C@@H](O)[C@@H]1O the inhibition was 1.06%.
The inhibition of CCc1cc(Cl)c(OC)c(C(=O)NC[C@@H]2CCCN2CC)c1O is reported as 6.09%.
For COc1ccc(CCC(=O)c2c(O)cc(O[C@@H]3O[C@H](CO)[C@@H](O)[C@H](O)[C@H]3O[C@@H]3O[C@@H](C)[C@H](O)[C@@H](O)[C@H]3O)cc2O)cc1O, the inhibition was 7.2%.
c1cc(CN2CCCCC2)cc(OCCCNc2nc3ccccc3s2)c1 has an inhibition of 1.85%.
Oc1nc(O)c2cn[nH]c2n1 gave an inhibition of 2.81%.
The inhibition of CNC(=O)c1cc(Oc2ccc(NC(=O)Nc3ccc(Cl)c(C(F)(F)F)c3)cc2)ccn1 is reported as 15.3%.
N#CCC(=O)c1ccccc1 gave an inhibition of 2.78%.
The inhibition of CC(=O)NC[C@H]1CN(c2ccc(-c3ccc(CNCc4cnn[nH]4)cc3)c(F)c2)C(=O)O1 is reported as 6.22%.
With CNC(=O)c1ccc2cc([C@@]3(O)CCn4cncc43)ccc2c1 the inhibition was 12.2%.

Sample 3 — method: RNA Bind-n-Seq; molecule type: RNA; medium: in vitro; tested at: 20 nM; setting: 6-mer, flanks averaged, single round; added: 150 mM KCl; baseline: input library; reading: higher = stronger binding
Target: TAR DNA-binding protein 43, full length, His tag (TARDBP, Homo sapiens, UniProt Q13148, residues 1-414)
`UUCCGG` — result for “6-mer enrichment (R)”: 0.849.
`UAGCAU` — result for “6-mer enrichment (R)”: 0.64.
For `UGGUGU`, “6-mer enrichment (R)” read 1.41.
Under “6-mer enrichment (R)”, `UAUGGG` is recorded as 1.96.
For `GUCGAU`, “6-mer enrichment (R)” read 0.786.
Under “6-mer enrichment (R)”, `UAAUGU` is recorded as 0.698.
Under “6-mer enrichment (R)”, `ACGAUA` is recorded as 0.623.
`AACAAG`: “6-mer enrichment (R)” 0.833.

Sample 4 — observed: enzyme activity; mode: inhibitor; tested at: 20 µM; setting: primary screen
Target: Replicase polyprotein 1ab, main protease (rep, Severe acute respiratory syndrome coronavirus 2, UniProt P0DTD1)
With COc1cccc2c1C(=O)c1c(O)c3c(c(O)c1C2=O)C[C@@](O)(/C(CO)=N/NC(=O)CCCCCN1C(=O)C=CC1=O)C[C@@H]3O[C@H]1C[C@H](N)[C@H](O)[C@H](C)O1 the inhibition was 101%.
Nc1nc2nc[nH]c2c(=S)[nH]1 has an inhibition of 81.4%.
The inhibition of COc1oc(=O)c2cc(N)ccc2c1Cl is reported as 45.3%.

Sample 5 — method: protein binding microarray; molecule type: double-stranded DNA, one strand shown; medium: in vitro; tested at: not given; baseline: not given; reading: higher = stronger binding
Target: Histone acetyltransferase KAT6A, winged helix 2, GST fusion (KAT6A, Homo sapiens, UniProt Q92794, residues 85-181)
Setting: 8-mer, flanks averaged, mean of 2 arrays, mostly near background
Residues (chain): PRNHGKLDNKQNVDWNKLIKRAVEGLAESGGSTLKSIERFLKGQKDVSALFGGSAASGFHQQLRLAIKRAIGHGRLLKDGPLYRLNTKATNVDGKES
`CGAACTTA` gave an E-score of 0.174.
`AGCAAATA` has an E-score of 0.0712.
With `GGCGGATA` the E-score was 0.229.
For `AATTATAC`, the E-score was -0.0567.
`GAGCCTGC` gave an E-score of 0.1.
With `AATAACAG` the E-score was 0.00626.
For `GGACACCA`, the E-score was 0.0461.
For `ATCTATGA`, the E-score was -0.0574.

Sample 6 — method: RNA Bind-n-Seq; molecule type: RNA; medium: in vitro; tested at: not given; setting: RNA with constant flanks, ends assumed; baseline: input RNA pool; reading: higher = stronger binding
Target: RING finger protein unkempt homolog, zinc fingers 1-6, GST-SBP tag (UNK, Homo sapiens, UniProt Q9C0B0, residues 30-357)
Sequence of UniProt Q9C0B0 (30-357, looked up): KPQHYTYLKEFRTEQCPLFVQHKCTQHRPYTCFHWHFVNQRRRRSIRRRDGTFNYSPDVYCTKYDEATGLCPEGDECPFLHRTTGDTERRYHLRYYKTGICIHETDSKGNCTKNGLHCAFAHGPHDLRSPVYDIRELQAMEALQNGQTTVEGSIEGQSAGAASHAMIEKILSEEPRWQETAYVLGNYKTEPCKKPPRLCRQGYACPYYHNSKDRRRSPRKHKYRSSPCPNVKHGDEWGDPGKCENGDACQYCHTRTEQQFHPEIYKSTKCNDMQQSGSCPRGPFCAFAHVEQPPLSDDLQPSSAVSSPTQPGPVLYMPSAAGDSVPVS
Constant ends, left off below: GGGAGUUCUACAGUCCGACGAUC … CAACAGAGGAUUGAGCAUCA
For `AAAGAAAAAGAUGAAAUGGUAGAACAAGAAUUUAACCGGUUGCUAGAAGCCACUUCUUACCUCCGUCACCAGUUAGACUUCAACGUCCUCAAUAAUAAACCUGUAUCCCUUGGCCAGGCA`, the bound/input enrichment was 0.277 ratio.
The bound/input enrichment of `CCUGCGACAGUUUUUAUGCUUUUUAGUGGUCAAGGAAGUUUGCUCCAACCUUUUAUAUACUACCGAUUUCUUACCCUUCGAUAUUCGUCUCGAAGAAACCCAUAUUGUCGGACCUUAUUU` is reported as 0.452 ratio.
`CGCGCCAUUCAGGGAGCAACAUCACACCAUUUAGGCCAGAAUUUCUCCAAAAUGUGUGAAACCGUUUUUGAAGAUCCCAAGACACCAGGAGAAAAGCAGUUUGCAUACCAGUGCUCCUGG` has a bound/input enrichment of 0.114 ratio.
`GCUUUUUACCUUCUAGCGUUUUUUUACUACCUAUACGGCAUGAUCUAUGUUCUGGUGAGCUCUCCGAACAACACAGAAGAAUCGGUCCAGUUAAGUGCAUGCAAAACGCCACCAAUGAAG` gave a bound/input enrichment of 0.47 ratio.
`CGCGGAGGCCGGCCGGGGGACGGCGUCCUGCCCCGGGAGCAGCUGAUACUUUUAGGGACACCCGCCGACCUAUUGGGAGAUUCGGAACAAGAAUGUAGGAGUGGAAGCCUGUAUGUGAGG` has a bound/input enrichment of 0.426 ratio.
`AUGACCCUUGGACAGCAGGAUGUUUCCAAAGUCCUGCUAGGCCCUCUCUCUCCCUACACGACCGAAUUUUUGCGGCAUUUGAAGAGCUUUUUCCAGAUUAUGUUUAAAAUUGAAACCAAG` gave a bound/input enrichment of 0.405 ratio.
For `AAUAAGGAAAAGUAUGGCAAACCAAAUAAAAGAAAAGGUUUUAAUGAAGGUUUAUGGGAGACCGAUAACAAUCCAAAAGUGAAAUUUUCAAGUCAACAGGCAGCAACUAAACAAUCAAAU`, the bound/input enrichment was 0.563 ratio.
`GCCAACAUCAAACGGGAACAGGGCAACAUUGAAGAGGCAGUUCGCCUGUAUCGCAAAGCAUCCGAAGUCUUCCCAGAGUUUGCUGCUGCACAUUCCAAUUUAGCAAGUGUACUGCAACAG` gave a bound/input enrichment of 0.243 ratio.

Some of these lines once more (sample 1):
CC(=O)[C@H]1CC[C@H]2[C@@H]3CCC4=CC(=O)CC[C@]4(C)[C@H]3CC[C@]12C gave a GFP-positive cells of 101%.
With C[C@@H]1CN(c2c(F)c(N)c3c(=O)c(C(=O)O)cn(C4CC4)c3c2F)C[C@H](C)N1 the GFP-positive cells was 86.9%.
Cc1c(OCC(F)(F)F)ccnc1C[S+]([O-])c1nc2ccccc2[nH]1 (centres unmarked) has a GFP-positive cells of 105%.
